Published values collected from several papers.
Numbered parts are unrelated; each lists some results of a single study. Changes are numbered by the printed parent chain.

Sample 1 — technique: protein binding microarray; form: double-stranded DNA, one strand shown; medium: in vitro; tested at: not given; reference: not given; reading: higher = stronger binding
Target: Histone acetyltransferase KAT6A, winged helix 1, GST fusion (KAT6A, Homo sapiens, UniProt Q92794, residues 1-85)
Notes: 8-mer, flanks averaged, mean of 2 arrays, mostly near background
Residues (chain): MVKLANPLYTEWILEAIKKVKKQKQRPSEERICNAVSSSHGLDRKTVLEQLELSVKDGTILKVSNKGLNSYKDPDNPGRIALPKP
Strand | E-score
CGCGTCAC | 0.171
AGGCAAAT | -0.266
CGAATTTC | 0.00675
AGCATAAC | -0.0854
TACAGAGA | -0.0487
CGGCCGTC | 0.448
ATGAAATC | -0.161
GACCTAAC | -0.0863
CAAACAGC | -0.135
CTTGGGTC | -0.201
AGACCTCT | -0.169
GAGCCACC | -0.116
AGCTGCTA | -0.268
GGCGCGAA | 0.269
ACAAACAA | -0.183
AGTGGATG | -0.151
ACTACTCT | -0.0298
GGCGAGTA | 0.234
ACTTGAGC | -0.203

Sample 2 — technique: RNA Bind-n-Seq; form: RNA; medium: in vitro; tested at: 365 nM; reference: no-protein control; reading: higher = stronger binding
Target: RNA binding protein fox-1 homolog 2, RRM domain, GST-SBP tag (RBFOX2, Homo sapiens, UniProt O43251-10, residues 100-194)
Notes: natural RNA segment, single round, ends assumed
Residues (chain): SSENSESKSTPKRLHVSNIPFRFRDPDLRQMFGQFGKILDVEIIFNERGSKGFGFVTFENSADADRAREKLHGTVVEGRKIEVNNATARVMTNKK
Strand | RBNS enrichment (R)
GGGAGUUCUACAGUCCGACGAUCUGCAGUGCUGGAUGACGGGCAGUGUGCAAGGCAUCCCAGCAUUCAUGGUCCCUUGUUAGUGUUGUGCCAAAGGCCUUGGGUCAGUUCUCUCAGCUUCCAUAUGGAAGUGAUGGAAUUCUCGGGUGCCAA | 0.311
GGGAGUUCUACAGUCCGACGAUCUGGGUAUCAGUUUCGGUAGAGGUGCAGCAUCGUGACACUUUUGCUAACAGGUACCACUUCUGAUCACCCUGUACAUACAUGAGCCGAAAGGCACAAUCACUGUUUCAGAUUGGAAUUCUCGGGUGCCAA | 0.526
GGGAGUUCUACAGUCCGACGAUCGUGGGUGUUUUGUAGAAGCAUUGCCUUUCAUUGUUCUUUCUAUAUCUGUCCACAAUGCCUACUGUCUCUGUGGUGAAAUAUUAAAAUAUGUAAGCUCACAUGGAAGUUUAUGGAAUUCUCGGGUGCCAA | 0.63
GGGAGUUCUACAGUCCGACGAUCAAAGGUUAACUUGGCCCGAAAAUAUUGCAGCAGCUUCAUGCAAGAAUUGCCACAGGACACUAUGGCCUUGCUGGGCUAGCAUUUGCUGCUGUAAUCUAGUUGCUCUGGUAUGGAAUUCUCGGGUGCCAA | 0.457
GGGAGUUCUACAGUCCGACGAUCUACUUAUUCAAAAAAAUCCUAGAGAUUCUUAGCUCUUGGGAUGCAGGCUCAGCCCGCUGGAGCAUGAGCUCUGUGUGUACCGAGAACUGGGGUGAUGUUUUACUUUUCACUGGAAUUCUCGGGUGCCAA | 0.342
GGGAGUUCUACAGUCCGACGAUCAACACACAGAAUAAAUGGCUCUUUCUCACCUUAUGUCAUGAAUGUUUUGGACAUCAAGCAUCCUAAUGGUACCUCCUUUGUACAAUGCCAAAAUGAGCCUCGGUGUCAGAUGGAAUUCUCGGGUGCCAA | 1.51
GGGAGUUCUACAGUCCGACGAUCAGGACCACCCUCAGGAUGGUGCAGAACCCAGAAUUGUGAUUGCAGCAUGUACUGUCCUGUAGGAAAGAAAAUGUGGCUCUAGCUAUUGACCCAUACAGCUGUUGGAAUCUUGGAAUUCUCGGGUGCCAA | 2.31
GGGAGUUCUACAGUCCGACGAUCGACGGGCAGGGUCUCCUGAGCAGCAGGUGGCUCGAGGCGGUUAGCAGGCUCCAGCAGCUCCCUUCUUCCUUCCCUCUGUGCCCGUGGCGUCUGCUUCCCAUCCUGGGAGUUGGAAUUCUCGGGUGCCAA | 0.343
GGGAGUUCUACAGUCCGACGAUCCAGCAUUAAAUAAAACAUUUCAAAUAUAUUGUAUAUGGCUUUAGUUGUAAACUAUACUGCAUGCUGACAGAGAAGCGCUCUUUUAGCUAAGCCCAGAACUUCUCUUUUGAUGGAAUUCUCGGGUGCCAA | 0.717
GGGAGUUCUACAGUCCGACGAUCCUGGCCUAGGUAUAUGGAUCUCACGCCUCUUGGGGAGACAGAUUGCAAAAAUGGGUUCCCUGCAUGUCUCCGGCUUCUUCCCAUGUUCUCAUUGUUUUUCUCUAGCUACCUGGAAUUCUCGGGUGCCAA | 6.6
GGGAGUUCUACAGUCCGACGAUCUCACUGUCCCCAUCGGCUCCUCAGAGUUGUUGGCCACCCUACCACUAACUGGAAGAGGAAACGCUGGGGCUGCAGUGAGGGCUCCAAGCUUCUCAGUGCCAACCACGCCCUGGAAUUCUCGGGUGCCAA | 0.201
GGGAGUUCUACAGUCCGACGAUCCAGGCCUUCAGUGACAUCAGGUCGUUGUCAUCCUUUCCCUCCCUGACCUGUCACGAGCCUCUGCAGGUGCCUGCUCACCAUGGCCCAGCGCCACUCUGUCCUCCGACUCAUGGAAUUCUCGGGUGCCAA | 0.448

Sample 3 — target: CCND1, cyclin fold, Cln2 fusion (human); technique: yeast growth competition, sequencing; medium: yeast; notes: weak parent motif; reference: not given; reading: higher = stronger binding
Starting sequence: SLBP docking peptide (human); ARYKRKLLINDFG
Substitution | normalised enrichment score
ARYKRKFLINDFG [L7F] | 0.0828
ARYKRHLLINDFG [K6H] | -0.871
ARYKRPLLINDFG [K6P] | 0.503
ARYKRELLINDFG [K6E] | 0.142
ARYKRKLLINHFG [D11H] | -0.234
ARYKRKLLINDFI [G13I] | -0.117
ARYKRKLLIVDFG [N10V] | -0.127
ARYKRKLLIADFG [N10A] | -0.097
ARYKRKLEINDFG [L8E] | 0.273
ARYKRKLLINPFG [D11P] | 0.966

Other studies, line by line
Substance | target | assay | system | setting | scale | endpoint | result
PhoQ, residues 284 288 289 292 302 303 SLSLLA | PhoP, residues 12 14 15 18 19 SYFRT (Escherichia coli, UniProt P23836) | Sort-seq, item: YFP reporter | E. coli | PhoQ-PhoP variant library, added: 10 µM Mg2+ | reference: high Mg2+ state, higher = stronger signaling | fold induction | 4.45

For quick reference, copied from above (sample 1):
Strand | E-score
GGCGCGAA | 0.269
ACAAACAA | -0.183
AGTGGATG | -0.151
ACTACTCT | -0.0298
GGCGAGTA | 0.234
ACTTGAGC | -0.203
